# Published values pooled from the literature.
# Lines come from different studies, so protocols differ. “And” joins repeats or separate records; there may be more than shown. ± gives the spread as reported.
# Chain of UniProt Q16539 (whole entry, looked up): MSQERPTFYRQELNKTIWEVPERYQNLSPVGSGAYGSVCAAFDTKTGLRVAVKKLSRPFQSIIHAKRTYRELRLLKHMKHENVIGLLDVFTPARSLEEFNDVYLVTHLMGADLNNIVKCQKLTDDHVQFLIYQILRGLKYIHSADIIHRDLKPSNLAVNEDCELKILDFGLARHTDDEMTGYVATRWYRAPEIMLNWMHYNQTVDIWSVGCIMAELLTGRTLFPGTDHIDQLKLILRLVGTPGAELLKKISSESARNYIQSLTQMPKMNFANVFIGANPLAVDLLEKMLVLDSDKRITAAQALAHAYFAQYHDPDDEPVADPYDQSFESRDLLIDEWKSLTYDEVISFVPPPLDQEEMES
# Chain of UniProt P50613 (whole entry, looked up): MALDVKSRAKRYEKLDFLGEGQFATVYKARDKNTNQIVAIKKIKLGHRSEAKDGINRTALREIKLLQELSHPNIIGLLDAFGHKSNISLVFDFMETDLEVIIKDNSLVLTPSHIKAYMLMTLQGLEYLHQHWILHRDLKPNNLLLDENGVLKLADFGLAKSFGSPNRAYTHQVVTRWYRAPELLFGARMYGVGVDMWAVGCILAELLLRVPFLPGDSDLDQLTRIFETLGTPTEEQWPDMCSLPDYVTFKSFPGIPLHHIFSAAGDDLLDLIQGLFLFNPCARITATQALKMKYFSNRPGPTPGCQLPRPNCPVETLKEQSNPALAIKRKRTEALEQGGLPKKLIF
SMILES,target or system,test,system,conditions,scale,endpoint,result
COc1cc2c(Oc3ccc4[nH]c(C)cc4c3F)ccnc2cc1OCC1(N)CC1,,,paediatric recurrent refractory sarcoma,8 mg,,grade 3 Headache,0%
C=CC(=O)Nc1cc(Nc2ncc(Cl)c(Nc3ccccc3C(=O)C(=O)N(C)C)n2)c(OC)cc1N1CCN(C)CC1,,RECIST v1.1 best response,human EGFR T790M NSCLC,"oral, 100 mg/day, per-protocol set",,patients with partial response,33.3%
c1cncc([C@@H]2CCCN2)c1,,radioligand binding,rat brain,"50 µM, BZP site, PDSP screen",,inhibition,5.71%
Nc1ncnc2c1ncn2[C@@H]1O[C@@H]2COP(=O)(O)O[C@H]3[C@@H](O)[C@H](n4cnc5c(=O)[nH]cnc54)O[C@@H]3COP(=O)(O)O[C@H]2[C@H]1O,West Nile virus,"RNA sequencing, measured: immune system, adaptive, R-HSA-1280218",HFF-1 cells,"concentration not given, upregulated pathway",relative to: WNV-infected untreated cells,fold enrichment,1.97
[131I-].[Na+],,,hyperthyroidism patients,"185 MBq, 6 months, long-term follow-up",,hypothyroid patients,48%
CCCCC1(CCCC)CN(c2ccccc2)c2cc(SC)c(OCC(=O)N[C@@H](C(=O)NCC(=O)O)c3ccccc3)cc2S(=O)(=O)C1,,measured: HDL cholesterol,"human, serum","20 mg once daily, day 13",,serum HDL-C,51.6 mg/dL
Cc1c(C(=O)NN2CCCCC2)nn(-c2ccc(Cl)cc2Cl)c1-c1ccc(I)cc1,,,B6SJL mice,"dose not given, compound alone",,tail-flick latency,no effect
COc1ccc(N2C(=O)N(c3c(C)cccc3Cl)Cc3cnc(Nc4ccc(C5CCN(C)CC5)cc4OC)nc32)nc1,"MAPK14 (Homo sapiens, UniProt Q16539)","kinase activity, inhibitor",,"0.5 µM, kinase P38-ALPHA",,inhibition,98%
COc1c(CCC[P+](c2ccccc2)(c2ccccc2)c2ccccc2)cc2c(c1OC)OCO2.[I-],CAKI-1,SRB,,,,LC50,> -4 log M
C[C@H]1CN(c2n[nH]c3nc(N[C@H]4CC[C@H](NS(=O)(=O)CCC(F)(F)F)CC4)ncc23)CCO1,"CDK7 (Homo sapiens, UniProt P50613)",Kinobeads competition,"HEK293, K562, placenta lysate","0.8 µM, unit not given",relative to: vehicle,remaining binding,0.83
C[C@H]1O[C@@H](O[C@H]2CC[C@@]3(C)[C@@H](CC[C@]4(C)[C@@H]3C=C[C@]35OC[C@@]6(CCC(C)(C)C[C@H]63)[C@@H](O)C[C@]54C)[C@]2(C)CO)[C@H](O)[C@@H](O[C@@H]2O[C@H](CO)[C@@H](O)[C@H](O)[C@H]2O)[C@H]1O,,,"mouse, no ethanol, hepatic SIRT1 knockdown, liver","dose not given, high dose",,NAD+/NADH ratio,3.12 and 3.08 and 3.24 and 3.17
COc1cc(C(=O)NS(=O)(=O)c2ccccc2C)ccc1Cc1cn(C)c2ccc(NC(=O)OC3CCCC3)cc12,,platelet aggregation,human platelet-rich plasma,"20 µM, 180 s, with: collagen",relative to: DMSO,inhibition,7%
CCCCCCCCCC(=O)N[C@@H](Cc1c[nH]c2ccccc12)C(=O)N[C@H](CC(N)=O)C(=O)N[C@@H](CC(=O)O)C(=O)N[C@@H]1C(=O)NCC(=O)N[C@@H](CCCN)C(=O)N[C@@H](CC(=O)O)C(=O)N[C@H](C)C(=O)N[C@@H](CC(=O)O)C(=O)NCC(=O)N[C@H](CO)C(=O)N[C@@H]([C@H](C)CC(=O)O)C(=O)N[C@@H](CC(=O)c2ccccc2N)C(=O)O[C@@H]1C,,calcein leakage,DOPC/DOPG/CHOL liposomes,"concentration not given, with: 20 wt% PEG-8000",,fusion time constant,24 ± 10 min
COc1ccc(-c2ccc3ncc4c(c3c2)n([C@@H]2CCN(C)CC2(F)F)c(=O)n4C)cn1,,,"mouse, sample A orthotopic PDX","7.5 mg/kg x 10, no radiation",,survival,23.4 ± 0.5 days
O=C(O)/C=C/C(=O)O.Oc1cccc2[nH]cc(CCNCc3ccccc3)c12,,,C57BL/6J mice,"subcutaneous, 0.03 mg/kg",relative to: pre-session baseline,body temperature change,0.2 ± 0.2 °C
COc1cc(Nc2ncc(F)c(Nc3ccc4c(n3)NC(=O)C(C)(C)O4)n2)cc(OC)c1OC,"AKR1B1 (Homo sapiens, UniProt P15121)",,,,,IC50,> 10 µM
CC(C)CCCCCCCCC[C@@H]1CC(=O)N[C@@H](CCC(=O)O)C(=O)N[C@@H](CC(C)C)C(=O)N[C@H](CC(C)C)C(=O)N[C@@H](C(C)C)C(=O)N[C@@H](CC(=O)O)C(=O)N[C@H](CC(C)C)C(=O)N[C@@H](CC(C)C)C(=O)O1,,calcein leakage,DOPC/DOPG/CHOL liposomes,"concentration not given, with: 40 mM CaCl2",,fusion time constant,26 ± 7 min
CC1=C(/C=C/C(C)=C/C=C/C(C)=C/C(=O)O)C(C)(C)CCC1,human coronavirus OC43,virus-induced cell killing,MRC-5,maximum over 10 doses,,maximum inhibition,0%
O=C(O)C(F)(F)C(F)(F)C(F)(F)C(F)(F)C(F)(F)C(F)(F)C(F)(F)F,,"RNA-seq pathway analysis, measured: fatty acid β-oxidation genes",liver spheroids,"top non-cytotoxic, 10 d",,gene expression,increased
Cc1cccc(C)c1NC(=O)C1CCCCN1 (stereo not shown),,,"Sprague-Dawley rat, male","sciatic nerve injection, 30 mM, 30 min",,motor block,14.7 ± 9 % MPE
CN1CCN(S(=O)(=O)c2cc([N+](=O)[O-])ccc2N(CCOS(C)(=O)=O)CCOS(C)(=O)=O)CC1,,,"NSG mice, sample CD PDX","intraperitoneal, 25 mg/kg weekly x3",relative to: treated over vehicle,EFS ratio (T/C),8.9
C[C@H](N)Cn1ncc2ccc3c(c21)CCCO3.Cl,,DOM stimulus generalization,rat trained on DOM,"intraperitoneal, 15 min pretreatment, training dose 1.0 mg/kg DOM",,ED50,0.05 mg/kg
Cc1cn([C@H]2O[C@@H](CO[P@@](=O)(N[C@@H](C)C(=O)OC(C)C)Oc3ccccc3)[C@H](O)[C@H]2F)c(=O)[nH]c1=O,,measured: detectable HBV DNA,adults with chronic hepatitis B,"25 or 50 mg, week 4, after treatment discontinuation",,virologic relapse,0%
CC12C(=O)C(C)(C(c3ccccc3)=C1c1ccccc1)C1(Br)C(=O)N(CCNCCN)C(=O)C21.O=C(O)C(F)(F)F.O=C(O)C(F)(F)F (stereo not shown),,"HPLC, measured: CO-release by-product",TRIS-sucrose buffer,"pH 7.4, 4-5 °C",,time to 50% conversion,1920 min and 2300 min and 1960 min and 1570 min
C[C@@H](O)[C@@H](CO)NC(=O)[C@@H](CCCNC(=N)N)NC(=O)[C@@H]1CCCN1C(=O)[C@@H]1CSSC[C@H](NC(=O)[C@H](Cc2ccccc2)NC(=O)CN2CCN(CC(=O)O)CCN(CC(=O)O)CCN(CC(=O)O)CC2)C(=O)N[C@@H](Cc2ccc(O)cc2)C(=O)N[C@@H](Cc2ccccc2)C(=O)N[C@@H](CCC(N)=O)C(=O)N[C@@H](CC(N)=O)C(=O)N1 [gallium-68 labelled],,,"healthy Wistar rat, lungs","intravenous, 8 MBq, 30 min, individual animals",,tissue uptake,0.7 %ID/g
COc1cc(CCC[P+](c2ccccc2)(c2ccccc2)c2ccccc2)c(OC)c2c1OCO2.[I-],TK-10,SRB,,,,LC50,> -4 log M
CC[C@H](C)[C@H](NC(=O)[C@H](Cc1ccccc1)NC(=O)[C@H](CCC(=O)O)NC(=O)[C@H](CCCNC(=N)N)NC(=O)[C@H](C)NC(=O)[C@H](C)NC(=O)[C@H](CCC(N)=O)NC(=O)[C@H](CCC(=O)O)NC(=O)[C@H](CCC(=O)O)NC(=O)[C@H](CC(C)C)NC(=O)[C@H](Cc1ccc(O)cc1)NC(=O)[C@H](CO)NC(=O)[C@H](CO)NC(=O)[C@@H](NC(=O)[C@H](CC(=O)O)NC(=O)[C@H](CO)NC(=O)[C@@H](NC(=O)[C@H](Cc1ccccc1)NC(=O)[C@@H](NC(=O)CNC(=O)[C@H](CCC(=O)O)NC(=O)[C@H](C)NC(=O)CCc1c[nH]cn1)[C@@H](C)O)[C@@H](C)O)C(C)C)C(=O)N[C@@H](C)C(=O)N[C@@H](Cc1c[nH]c2ccccc12)C(=O)N[C@@H](CC(C)C)C(=O)N[C@H](C(=O)N[C@@H](CCCNC(=N)N)C(=O)NCC(=O)N[C@@H](CCCNC(=N)N)C(=O)N[C@@H](CCCCNC(=O)COCCOCCNC(=O)COCCOCCNC(=O)CC[C@H](NC(=O)CCCCCCCCCCCCCCCCC(=O)O)C(=O)O)C(=O)NCC(=O)NCC(=O)N[C@@H](CO)C(=O)N[C@@H](CCCCNc1c(NCCCCCN(O)C(=O)CCC(=O)NCCCCCN(O)C(=O)CCC(=O)NCCCCCN(O)C(C)=O)c(=O)c1=O)C(=O)O)C(C)C [zirconium-89 labelled],,,"rat, duodenum content","intravenous, 3 nmol/kg, 24 h",,tissue uptake,0.07 %ID/g
COc1ccc(CCC2CCCC(CCc3ccc(OC)cc3)N2C[C@@H](O)CO)cc1.Cl (stereo in doubt),,,rat striatal slices,"1 µM, 30 min, no methamphetamine",,DOPAC overflow,93.8 ± 32.2 pg/30 mL/mg
Cc1cn(-c2cc(NC(=O)c3ccc(C)c(Nc4nccc(-c5cccnc5)n4)c3)cc(C(F)(F)F)c2)cn1,,,Alzheimer's disease patients,"150 mg, 6 months, group mean",direction not given,CDR-SOB score,6.3 ± 2.4
Cn1ncc(-c2nc(N[C@H]3CC[C@H](N)CC3)ncc2Cl)c1CC1CC1,,phase I clinical trial,"R/R AML or high-risk MDS patients, RUNX1-mutated",dose not given,,CR/CRi rate,23%
CC[C@H](C)[C@@H]1NC(=O)[C@@H]2CCCN2C(=O)[C@H](CC(C)C)NC(=O)[C@H](CC(C)C)NC(=O)CNC(=O)[C@@H](NC(=O)[C@@H](NC(=O)[C@H](CC(=O)O)NC(=O)CNC(=O)[C@@H](NC(=O)[C@H](C)NC(=O)CNC(=O)[C@H](CCCCN)NC(=O)[C@H](CC(C)C)NC(=O)[C@H](CC(C)C)NC(=O)[C@H](CCCCN)NC(=O)CNC(=O)[C@@H](NC(=O)[C@@H](N)CC(C)C)C(C)C)C(C)C)C(C)C)CSSC[C@@H](C(=O)O)NC1=O,,"RNA-seq, measured: Smarca2","mouse, traumatic brain injury model, frontal cortex and hippocampus",dose not given,relative to: TBI alone,log2 fold change,0.466

# Some of these lines once more:
SMILES,target or system,test,system,conditions,scale,endpoint,result
COc1cc(CCC[P+](c2ccccc2)(c2ccccc2)c2ccccc2)c(OC)c2c1OCO2.[I-],TK-10,SRB,,,,LC50,> -4 log M
C[C@H](N)Cn1ncc2ccc3c(c21)CCCO3.Cl,,DOM stimulus generalization,rat trained on DOM,"intraperitoneal, 15 min pretreatment, training dose 1.0 mg/kg DOM",,ED50,0.05 mg/kg
